Assay results gathered from unrelated publications.
Each line is one published result; not all experiments were run side by side. Several values in a cell are separate wells, animals, samples, runs or records.
CDK2: Cyclin-dependent kinase 2 (CDK2, Homo sapiens, UniProt P24941)
CDK2 with cyclin A: Cyclin-dependent kinase 2, with cyclin A (CDK2, Homo sapiens, UniProt P24941)
CDK2 with cyclin E: Cyclin-dependent kinase 2, with cyclin E (CDK2, Homo sapiens, UniProt P24941)

| Structure (SMILES) | target | test | system | setting | how to read | measurement | result |
| --- | --- | --- | --- | --- | --- | --- | --- |
| CN1C[C@@H](c2c[nH]c3cc(Br)ccc23)NC[C@@H]1c1c[nH]c2cc(Br)ccc12 | Cyclin-dependent kinase 2, with cyclin D1 (CDK2, Homo sapiens, UniProt P24941) | enzyme activity, inhibitor | – | 10 µM | – | remaining activity | 100% |
| CC(=O)N1c2ccc(-c3ccc(CNC(=O)c4cn5cc(-c6cnc(N)nc6)nc(N6CCOCC6)c5n4)cc3)cc2CC[C@@H]1C | CDK2 | KINOMEscan | – | 10 µM | – | remaining binding | 90% |
| C=C1CCCCCCCCCC(CO)C1=O (stereo not drawn) | CDK2 | cell-free assay, competition with immobilised ligand | – | 10 µM | – | remaining binding | 98% |
| Cc1cccc(-c2ccc3nc(NC(=O)C4CCOCC4)nn3c2)c1 | CDK2 with cyclin A | enzyme activity, Dundee kinase panel | – | 10 µM | – | remaining activity | 98% |
| CNC(=O)C1CCCN(C(=O)C2CC3CCC2N3C(=O)[C@@H]2C[C@@H](O)CN2C(=O)NCc2cccc(Cl)c2F)C1 (mixture of isomers) | CDK2 | degrader, Western blot | A549 | concentration not given, 24 h after washout | – | protein reduction | > 50% |
| Cc1cccc(O[C@H]2CCC[C@@H](C(C)CNCc3ccncc3)C2)c1 (relative stereo) | CDK2 | kinase activity, kinome panel screening | – | 10 µM | – | inhibition | -17% |
| COc1c(Cl)cccc1Nc1c(-c2ccncc2C#C[C@@]2(C)CCCN2C(=O)/C=C/CN(C)C)[nH]c2c1C(=O)NCC2 | CDK2 | binding, competition with immobilised ligand | – | 3 µM | – | remaining binding | 97% |
| C[C@]1(O)CCCN(c2nc(Nc3ccc(S(=O)(=O)N[C@H]4CC[C@H](CN5CCN(c6ccc(C7CCC(=O)NC7=O)cc6F)CC5)CC4)cc3)ncc2C(F)(F)F)C1 (stereo partly drawn) | CDK2 | binding, competition with immobilised ligand | – | 1 µM | – | remaining binding | 6.3% |
| COCC12C(=O)NC3C4(C(OC)CC1O)C1CC5(O)C(OC)C(O)C(OC(C)=O)(C1C5OC(=O)c1ccccc1)C3(O)C(OC)C24 (stereo not drawn) | CDK2 with cyclin A | kinase activity, inhibitor, ProQinase kinase profiling | – | 25 µM | relative to: control | remaining activity | 106% and 110% |
| O=C=[N][Ru-4]123([n]4c5ccc(O)cc5c5c6c(c7cc(F)c[n+]1c7c54)C(=O)NC6=O)[S+]1CC[S+]2CC[S+]3CC1 (stereo not drawn) | CDK2 with cyclin A | enzyme activity | – | 100 nM, human enzyme, added: 10 µM ATP | relative to: untreated | remaining activity | 115% |
| Cc1nn(C)c(C)c1/C=C/C(=O)N1CCC[C@H](Cc2ccc(Nc3ccccn3)nn2)C1 | CDK2 | enzyme activity, inhibitor, ADP detection | – | 1 µM | – | activity vs control | 91% |
| O=C(Cc1ccc(OCc2ccccc2)cc1)NC1(C(=O)O)CCN(C(=O)c2ccc(-c3cccc(Cl)c3)cc2)CC1 | CDK2 with cyclin E | enzyme activity, inhibitor | – | 10 µM | – | activity vs control | 130% |
| C=CC(=O)Nc1cccc(-c2cnc3[nH]cc(C(=O)NC(C)(C)C)c3n2)c1 | CDK2 | enzyme activity, inhibitor | – | 0.1 µM | – | inhibition | 19% |
| C=CC(=O)N1CCc2ccc(-n3c(=O)ccc4cnc5ccc(-c6cnn(C)c6)cc5c43)cc21 | CDK2 | KINOMEscan | – | 1 µM | relative to: DMSO control | remaining binding | 92% |
| CNC(=O)C1CCN(c2cc(C)c(F)cc2NC(=O)c2ccc(-c3cc(O)ccc3C)c(C)c2)CC1 | CDK2 | binding, competition with immobilised ligand | – | 1 µM | – | remaining binding | 99% |
| CNC(=O)C[C@H](Cc1ccc(C#N)cc1)NC(=O)c1cc(-c2ccc(CN[C@H](C)c3ccc(C)cc3)o2)ccc1Cl | CDK2 with cyclin E | enzyme activity, inhibitor | – | 1 µM | – | activity vs control | 99% |
| CN1CCN(Cc2ccc(-c3ccc(CO[C@H]4CCC[C@@H]4NC(=O)c4cc(-c5cnn(C)c5)cnc4N)cc3)cc2)CC1 | CDK2 with cyclin A | enzyme activity, inhibitor | – | 0.1 µM | – | inhibition | 4% |
| O=c1c(-c2ccc(Cl)c(CN3CCOCC3)c2)coc2cc(O)ccc12 | CDK2 with cyclin E | enzyme activity, inhibitor | – | 1 µM | – | remaining activity | 90% |
| C=CC(=O)N1Cc2nc(-c3cc(-c4cc(Cl)cnc4Cl)c(F)cc3F)n(-c3ccncn3)c2C1 | Cyclin-dependent kinase 2, with cyclin E1 (CDK2, Homo sapiens, UniProt P24941) | cell-free assay, inhibitor | – | 1 µM | – | inhibition | -1.3% |
| CCN1CCN(Cc2ccc(C(=O)Nc3ccc(C)c(NCc4cnc5[nH]ccc5c4OC)c3)cc2C(F)(F)F)CC1 | CDK2 | binding, competition with immobilised ligand | – | 1 µM | – | remaining binding | 100% |
| Nc1ncc2c(n1)-c1c([nH]c3ccc(C4=CCOCC4)cc13)CCC2 | CDK2 | binding, competition with immobilised ligand | – | 1 µM | – | remaining binding | 100% |
| COc1ccc(NC(=O)Nc2ccc3c(c2)C(=O)N(C(C)CO)CC(C)C(CN(C)Cc2ccc4c(c2)OCO4)O3)cc1 (stereo not drawn) | CDK2 with cyclin A | kinase activity, KinaseProfiler | – | 0.03 µM, species human | relative to: control | remaining activity | 88% |
| Cc1ccc(C)c(-c2ccc3nc(NC(=O)C4CCCCC4)nn3c2)c1 | CDK2 with cyclin A | enzyme activity, Dundee kinase panel | – | 10 µM | – | remaining activity | 90% |
| NC(=O)[C@@H](O)C[C@H]1CCc2sc3ncnc(O[C@H]4CC[C@H](N5CCOCC5)CC4)c3c21 | CDK2 with cyclin E | enzyme activity, inhibitor | – | 10 µM | – | inhibition | 32% |
| CCc1nnc(Nc2cnc([C@@H]3CCCN(C(=O)CCc4cccnc4)C3)cn2)s1 | CDK2 | enzyme activity, inhibitor, ADP detection | – | 1 µM | – | activity vs control | 107% |
| CN1CCN(Cc2ccc(NC(=O)c3cccc(C#Cc4cnc(N)c5ncccc45)c3)cc2C(F)(F)F)CC1 | CDK2 | cell-free assay, competition with immobilised ligand | – | 50 nM | – | remaining binding | 81% |
| Cc1cnc2nc1Nc1cccc(c1)COC/C=C/COCc1cc(ccc1OCCN1CCOCC1)N2 | CDK2 | – | – | concentration not given | – | percent of control | 97% |

Excerpt of the above:
| Structure (SMILES) | target | test | system | setting | how to read | measurement | result |
| --- | --- | --- | --- | --- | --- | --- | --- |
| CN1C[C@@H](c2c[nH]c3cc(Br)ccc23)NC[C@@H]1c1c[nH]c2cc(Br)ccc12 | Cyclin-dependent kinase 2, with cyclin D1 (CDK2, Homo sapiens, UniProt P24941) | enzyme activity, inhibitor | – | 10 µM | – | remaining activity | 100% |
| CNC(=O)C1CCN(c2cc(C)c(F)cc2NC(=O)c2ccc(-c3cc(O)ccc3C)c(C)c2)CC1 | CDK2 | binding, competition with immobilised ligand | – | 1 µM | – | remaining binding | 99% |
| CNC(=O)C[C@H](Cc1ccc(C#N)cc1)NC(=O)c1cc(-c2ccc(CN[C@H](C)c3ccc(C)cc3)o2)ccc1Cl | CDK2 with cyclin E | enzyme activity, inhibitor | – | 1 µM | – | activity vs control | 99% |
| O=c1c(-c2ccc(Cl)c(CN3CCOCC3)c2)coc2cc(O)ccc12 | CDK2 with cyclin E | enzyme activity, inhibitor | – | 1 µM | – | remaining activity | 90% |
